Assay results pooled from the literature.
Numbered parts are unrelated; each lists some results of a single study.

Series 1 — method: protein-binding microarray; form: double-stranded DNA, one strand shown; matrix: in vitro; tested at: not given; direction: higher = stronger binding
Target: Transcriptional repressor CTCF (CTCF, Homo sapiens, UniProt P49711, residues 1-727, full length assumed)
Chain of UniProt P49711 (whole entry, looked up): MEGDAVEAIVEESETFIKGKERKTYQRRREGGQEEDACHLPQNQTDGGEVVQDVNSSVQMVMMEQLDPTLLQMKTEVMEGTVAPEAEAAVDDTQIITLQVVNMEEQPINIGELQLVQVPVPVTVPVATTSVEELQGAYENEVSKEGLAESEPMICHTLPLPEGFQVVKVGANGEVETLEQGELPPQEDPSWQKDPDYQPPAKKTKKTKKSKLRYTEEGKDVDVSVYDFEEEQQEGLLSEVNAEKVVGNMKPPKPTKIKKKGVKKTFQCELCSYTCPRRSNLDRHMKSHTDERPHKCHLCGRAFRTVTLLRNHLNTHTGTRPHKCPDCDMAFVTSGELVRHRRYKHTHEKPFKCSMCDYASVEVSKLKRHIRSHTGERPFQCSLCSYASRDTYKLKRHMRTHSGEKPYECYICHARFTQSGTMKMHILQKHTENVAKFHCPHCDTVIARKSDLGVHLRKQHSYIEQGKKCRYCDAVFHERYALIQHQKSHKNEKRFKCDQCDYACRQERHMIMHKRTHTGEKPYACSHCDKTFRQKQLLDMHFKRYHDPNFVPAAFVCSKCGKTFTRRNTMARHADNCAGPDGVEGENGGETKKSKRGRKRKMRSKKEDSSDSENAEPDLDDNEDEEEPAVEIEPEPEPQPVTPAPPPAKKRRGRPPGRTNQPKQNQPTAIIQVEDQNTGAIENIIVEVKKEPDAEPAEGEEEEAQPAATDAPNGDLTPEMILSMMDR
Setting: k-mer, scored over probes, only values ≥0.25
Oligonucleotide | E-score
GTACGTAA | 0.31
ACCCCGCC | 0.347
TAATACTA | 0.327
TACCACAA | 0.322

Series 2 — method: RNA Bind-n-Seq; form: RNA; matrix: in vitro; tested at: 365 nM; relative to: no-protein control; direction: higher = stronger binding
Target: RNA binding protein fox-1 homolog 2, RRM domain, GST-SBP tag (RBFOX2, Homo sapiens, UniProt O43251-10, residues 100-194)
Setting: natural RNA segment, single round, ends assumed
Constant ends, left off below: GGGAGUUCUACAGUCCGACGAUC … UGGAAUUCUCGGGUGCCAA
Residues (chain): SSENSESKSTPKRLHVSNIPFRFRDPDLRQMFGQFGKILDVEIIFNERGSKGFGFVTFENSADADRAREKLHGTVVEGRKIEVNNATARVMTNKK
Oligonucleotide | RBNS enrichment (R)
UCUUCCCUCCGUGAGGGCCACGCUGUCACCACAGUCCUCCCAGAUGGGUUUUGGAUUAGCAUCAGUCCUGUGUCACCAAGUGCCAAACAGCUGAGGGGUAGAAGUGGGAC | 0.693
UGGAUUACAUUCAUUUCCUGGGAAAGCUAGCUUACCAUACAUUCAAGUUUAUAAAACAAUUUGCCAUAGGCAAAGCCAUUUAAAAAGUUCAUUCUGAAAUUAUUUCAUUU | 0.528
GACCUGGUGCCUGGCGCUGCCUUCAGCAGGCAGCAGGCAGCCUCCUGCACACUGGCUUUUUUAGUCAUUUAUGGGCAAAAAGAGUUAAAGUAAAACUUUGCAAAUCCCGA | 0.296
AGGUGCUGAGCCCCCGCCUUGCACUGCGCCUGCCCCACGGUGUCCCCGCCGGGAAGCAGCCCCGGCUCCUGAAUCACCCUCGCUCCGUCAGGCGGGACUCGUGUCCCAGA | 1.5
CUGACUCCGCCCUUCUUCCUUAGUACGUAGUAUCCAGCAAGCAUUUGCCCCACCUUGUCUUGUUGAUGAACAAUAUUAUGAAGCCUGCAGUCAUUCUCUCUGUACAUCAG | 0.844
UAAAGUCCAGCCUAUUACAAACAAACAAACAAACAAACAAACAAAGGACCUCCAUUUGGAGAAUUGCAAGGAUUUUAUCCUGAAUUAUAGUGUUGGUGAGUUCAAGUCAU | 0.658

Series 3 — method: protein binding microarray; form: double-stranded DNA, one strand shown; matrix: in vitro; tested at: not given; relative to: not given; direction: higher = stronger binding
Target: Histone acetyltransferase KAT6A, both winged helices, GST fusion (KAT6A, Homo sapiens, UniProt Q92794, residues 1-181)
Setting: 8-mer, flanks averaged, mean of 2 arrays, mostly near background
Target sequence (chain): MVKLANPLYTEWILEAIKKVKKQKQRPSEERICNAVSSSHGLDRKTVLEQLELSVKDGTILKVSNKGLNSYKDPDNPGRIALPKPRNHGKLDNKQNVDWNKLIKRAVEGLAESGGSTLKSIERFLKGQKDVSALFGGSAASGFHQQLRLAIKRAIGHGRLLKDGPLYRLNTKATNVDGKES
Oligonucleotide | E-score
GCGGCCAA | 0.2
AACTGGGA | -0.144
ATATTGCC | -0.0989
ACCCCCGG | 0.212
AAATAGGG | -0.129
CTCTCCTC | -0.178

Further values, each from its own experiment
Molecule | target | test | system | setting | scale | measurement | result
PhoQ, residues 284 288 289 292 302 303 SCKMEA | PhoP, residues 12 14 15 18 19 QYCSL (Escherichia coli, UniProt P23836) | Sort-seq, measured: YFP reporter | E. coli | PhoQ-PhoP variant library, together with: 10 µM Mg2+ | relative to: high Mg2+ state, higher = stronger signaling | fold induction | 13.9
